Measured values pooled from the literature.
Each numbered part is a random draw from the data of one study; scales do not carry over between parts.

Study 1 — technique: protein binding microarray; form: double-stranded DNA, one strand shown; sample: in vitro; concentration: not given; relative to: not given; direction: higher = stronger binding; endpoint: E-score
Target: Histone acetyltransferase KAT6A, winged helix 2, GST fusion (KAT6A, Homo sapiens, UniProt Q92794, residues 85-181)
Setting: 8-mer, flanks averaged, mean of 2 arrays, mostly near background
Target sequence (chain): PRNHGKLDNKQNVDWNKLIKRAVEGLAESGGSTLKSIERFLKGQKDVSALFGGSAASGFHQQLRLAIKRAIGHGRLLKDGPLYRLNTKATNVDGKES
AATACATT: -0.107
CGAACCCA: 0.19
CCAAGACG: -0.116
AAAAACCA: -0.0272
GGAACGTA: -0.268
ACAGTACT: -0.0109
AGGAAAAG: 0.12

Study 2 — technique: universal PBM; form: double-stranded DNA, one strand shown; sample: in vitro; concentration: not given; direction: higher = stronger binding; endpoint: E-score
Target: Sal-like protein 4, full length isoform B (SALL4, Homo sapiens, UniProt Q9UJQ4-2, residues 1-616)
Setting: 8-mer, flanks averaged, mean of replicates
CATACGAA: 0.187
GTCCAGCA: -0.0987
CGCGTGAG: -0.08
CCTGCCCA: -0.192
CATTACCA: 0.138
AACTAGCC: -0.0182

Study 3 — technique: protein-binding microarray; form: double-stranded DNA, one strand shown; sample: in vitro; concentration: 2200 nM top; setting: 60-bp whole probe; added: salmon DNA 0.4 mg/ml; relative to: random background probes; direction: higher = stronger binding; endpoint: fitted relative affinity
Target: Interferon regulatory factor 7, full length, phosphomimetic (IRF7, Homo sapiens, UniProt Q92985, residues 1-503, S471D/S472D/S475D/S476D/S477D/S483D/S484D/S487D)
Residues (chain): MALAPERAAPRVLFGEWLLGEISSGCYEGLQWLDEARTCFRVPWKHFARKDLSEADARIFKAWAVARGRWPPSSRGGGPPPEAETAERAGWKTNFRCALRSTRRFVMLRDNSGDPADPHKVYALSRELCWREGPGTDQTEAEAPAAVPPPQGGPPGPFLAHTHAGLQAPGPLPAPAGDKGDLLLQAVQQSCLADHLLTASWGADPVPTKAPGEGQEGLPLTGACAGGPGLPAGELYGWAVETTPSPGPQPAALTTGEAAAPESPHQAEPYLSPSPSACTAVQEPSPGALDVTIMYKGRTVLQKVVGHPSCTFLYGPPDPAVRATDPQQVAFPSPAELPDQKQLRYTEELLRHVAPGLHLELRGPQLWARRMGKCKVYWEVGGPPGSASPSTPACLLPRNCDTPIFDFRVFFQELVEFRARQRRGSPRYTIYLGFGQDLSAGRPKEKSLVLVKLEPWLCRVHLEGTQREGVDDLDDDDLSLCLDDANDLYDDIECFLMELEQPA
GCCTAGCACTTAGTTATCGGGTTTCGATTAGTGCTAGTCTTGATTCGCTTGACGCTGCTG: 3.83 z-score
GCCTAGCACAGCACTTTGGCATGTCTTGACGTGCTAGTCTTGATTCGCTTGACGCTGCTG: -0.423 z-score
GCCTAGCACTTAGGTTCCCTTTTCCTTTGGTGCTAGGTCTTGATTCGCTTGACGCTGCTG: 3.47 z-score
GCCTAGCACTGTCTTCCCCATCTTGTTCCGTGCTAGGTCTTGATTCGCTTGACGCTGCTG: 2.49 z-score

Single results of other studies
PhoQ, residues 284 288 289 292 302 303 SLSVQF — fold induction (PhoP, residues 12 14 15 18 19 NFCKL (Escherichia coli, UniProt P23836); Sort-seq, measured: YFP reporter; E. coli; PhoQ-PhoP variant library, added: 10 µM Mg2+; relative to: high Mg2+ state, higher = stronger signaling): 10.3

A few entries again (study 3):
GCCTAGCACTTAGGTTCCCTTTTCCTTTGGTGCTAGGTCTTGATTCGCTTGACGCTGCTG: 3.47 z-score
GCCTAGCACAGCACTTTGGCATGTCTTGACGTGCTAGTCTTGATTCGCTTGACGCTGCTG: -0.423 z-score
